Assay results pooled from the literature.
A part holds a random share of what one study measured.
Chain of UniProt P61075 (whole entry, looked up): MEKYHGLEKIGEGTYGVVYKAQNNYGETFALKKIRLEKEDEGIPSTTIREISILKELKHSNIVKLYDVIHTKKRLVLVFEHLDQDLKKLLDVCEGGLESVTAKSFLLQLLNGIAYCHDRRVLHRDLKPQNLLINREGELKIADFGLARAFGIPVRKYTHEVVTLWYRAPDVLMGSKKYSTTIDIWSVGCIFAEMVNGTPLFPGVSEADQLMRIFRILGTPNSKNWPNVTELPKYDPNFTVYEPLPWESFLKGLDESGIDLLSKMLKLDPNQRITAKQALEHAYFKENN

Series 1
Organism: Plasmodium berghei
Mode: inhibitor
Cells: Huh-7
Strain: GFP-expressing sporozoites, liver stage
Concentration: 10 µM
Time: 24 h
Relative to: untreated control
Measurement: infection rate
COc1cc2c(cc1OC)[C@@]13CCN4CC5=CCO[C@H]6CC(=O)N2[C@H]1[C@H]6[C@H]5C[C@H]43: 48.6%
CCCCOC(=O)c1ccccc1C(=O)OCCCC: 86.5%
c1ccc2c(c1)sc1ccccc12: 115%
Cc1ccc(/N=C/N(C)/C=N/c2ccc(C)cc2C)c(C)c1: 134%

Series 2
SMILES: CNC(=O)c1ccc(-c2cnn3ccc(C(=O)N(C)c4ccc(Cl)c(C(=O)OC)c4)cc23)cc1
Organism: Cryptosporidium parvum
Technique: faecal qPCR
Species: IFN-γ knockout mouse
Time: day 0 post treatment
Measurement: oocyst shedding
10 mg/kg: 4.03 log oocysts/g faeces
1 mg/kg: 4.16 log oocysts/g faeces
3 mg/kg: 4.38 log oocysts/g faeces

Series 3
Cell line: A-375
Concentration: 100 µM
Time: 18 h
Measurement: viability
CCOC(=O)CC(SP(=S)(OC)OC)C(=O)OCC (centres unmarked): 84.8%
CCO[C@H]1O[C@@H]2O[C@@]3(C)CC[C@H]4[C@H](C)CC[C@@H]([C@H]1C)[C@@]24OO3: 45.8%
N=C(N)NN: 107%

Other studies, line by line
CCC(=O)N[C@H]1CC[C@@H](C(=O)N(C)c2ccc(-c3nc4ccccc4o3)cc2)C1  remaining binding (Cyclin-dependent kinase 2 homolog (CRK2, Plasmodium falciparum, UniProt P61075); cell-free assay, competition with immobilised ligand; 1 µM): 80%

A few entries again (series 2):
3 mg/kg: 4.38 log oocysts/g faeces
1 mg/kg: 4.16 log oocysts/g faeces
